Results collected from several papers.
A part holds a random share of what one study measured. “And” joins repeats or separate records; there may be more than shown.
UniProt Q86Y07, sequence (whole entry, looked up): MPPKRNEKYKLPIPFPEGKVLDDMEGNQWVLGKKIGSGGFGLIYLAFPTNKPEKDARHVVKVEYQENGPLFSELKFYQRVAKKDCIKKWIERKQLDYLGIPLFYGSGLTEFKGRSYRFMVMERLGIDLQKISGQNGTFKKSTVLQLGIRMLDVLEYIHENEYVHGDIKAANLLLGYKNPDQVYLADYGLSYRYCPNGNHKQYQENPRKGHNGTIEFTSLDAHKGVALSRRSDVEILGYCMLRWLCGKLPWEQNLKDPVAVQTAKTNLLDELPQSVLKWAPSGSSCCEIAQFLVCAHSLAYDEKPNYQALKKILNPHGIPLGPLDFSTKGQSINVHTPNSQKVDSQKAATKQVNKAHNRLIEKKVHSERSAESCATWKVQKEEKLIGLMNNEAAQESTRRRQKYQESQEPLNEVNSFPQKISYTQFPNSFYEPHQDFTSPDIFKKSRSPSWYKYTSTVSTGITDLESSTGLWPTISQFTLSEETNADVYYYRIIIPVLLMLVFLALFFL
UniProt Q9BRS2, sequence (whole entry, looked up): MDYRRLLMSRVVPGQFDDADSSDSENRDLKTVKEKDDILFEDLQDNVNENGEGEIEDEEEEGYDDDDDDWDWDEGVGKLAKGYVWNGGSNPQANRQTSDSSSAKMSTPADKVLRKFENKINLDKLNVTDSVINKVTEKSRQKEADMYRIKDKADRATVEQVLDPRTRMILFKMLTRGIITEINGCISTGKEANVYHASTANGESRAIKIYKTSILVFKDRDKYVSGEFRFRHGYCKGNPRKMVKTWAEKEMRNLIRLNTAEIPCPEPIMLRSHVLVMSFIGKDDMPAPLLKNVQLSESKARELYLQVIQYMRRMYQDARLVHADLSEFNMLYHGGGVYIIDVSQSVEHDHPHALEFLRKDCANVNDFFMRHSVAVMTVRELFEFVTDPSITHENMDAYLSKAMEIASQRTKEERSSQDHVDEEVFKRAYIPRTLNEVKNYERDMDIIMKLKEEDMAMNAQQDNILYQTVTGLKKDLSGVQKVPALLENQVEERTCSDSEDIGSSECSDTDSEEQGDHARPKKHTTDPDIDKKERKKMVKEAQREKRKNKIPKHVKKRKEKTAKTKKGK
UniProt P49840, sequence (whole entry, looked up): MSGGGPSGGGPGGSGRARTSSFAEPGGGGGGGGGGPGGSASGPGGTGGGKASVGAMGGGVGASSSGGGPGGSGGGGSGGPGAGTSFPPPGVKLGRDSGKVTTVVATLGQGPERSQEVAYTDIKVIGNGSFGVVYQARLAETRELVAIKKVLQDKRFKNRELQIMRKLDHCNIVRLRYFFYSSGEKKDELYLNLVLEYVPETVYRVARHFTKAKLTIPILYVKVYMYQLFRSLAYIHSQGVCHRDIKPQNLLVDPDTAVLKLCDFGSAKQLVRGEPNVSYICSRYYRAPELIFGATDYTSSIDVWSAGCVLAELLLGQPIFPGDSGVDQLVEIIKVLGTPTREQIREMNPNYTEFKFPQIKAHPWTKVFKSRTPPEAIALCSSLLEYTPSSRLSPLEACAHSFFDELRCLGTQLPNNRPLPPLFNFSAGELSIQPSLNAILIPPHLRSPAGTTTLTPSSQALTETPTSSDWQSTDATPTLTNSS
UniProt O76039, sequence (whole entry, looked up): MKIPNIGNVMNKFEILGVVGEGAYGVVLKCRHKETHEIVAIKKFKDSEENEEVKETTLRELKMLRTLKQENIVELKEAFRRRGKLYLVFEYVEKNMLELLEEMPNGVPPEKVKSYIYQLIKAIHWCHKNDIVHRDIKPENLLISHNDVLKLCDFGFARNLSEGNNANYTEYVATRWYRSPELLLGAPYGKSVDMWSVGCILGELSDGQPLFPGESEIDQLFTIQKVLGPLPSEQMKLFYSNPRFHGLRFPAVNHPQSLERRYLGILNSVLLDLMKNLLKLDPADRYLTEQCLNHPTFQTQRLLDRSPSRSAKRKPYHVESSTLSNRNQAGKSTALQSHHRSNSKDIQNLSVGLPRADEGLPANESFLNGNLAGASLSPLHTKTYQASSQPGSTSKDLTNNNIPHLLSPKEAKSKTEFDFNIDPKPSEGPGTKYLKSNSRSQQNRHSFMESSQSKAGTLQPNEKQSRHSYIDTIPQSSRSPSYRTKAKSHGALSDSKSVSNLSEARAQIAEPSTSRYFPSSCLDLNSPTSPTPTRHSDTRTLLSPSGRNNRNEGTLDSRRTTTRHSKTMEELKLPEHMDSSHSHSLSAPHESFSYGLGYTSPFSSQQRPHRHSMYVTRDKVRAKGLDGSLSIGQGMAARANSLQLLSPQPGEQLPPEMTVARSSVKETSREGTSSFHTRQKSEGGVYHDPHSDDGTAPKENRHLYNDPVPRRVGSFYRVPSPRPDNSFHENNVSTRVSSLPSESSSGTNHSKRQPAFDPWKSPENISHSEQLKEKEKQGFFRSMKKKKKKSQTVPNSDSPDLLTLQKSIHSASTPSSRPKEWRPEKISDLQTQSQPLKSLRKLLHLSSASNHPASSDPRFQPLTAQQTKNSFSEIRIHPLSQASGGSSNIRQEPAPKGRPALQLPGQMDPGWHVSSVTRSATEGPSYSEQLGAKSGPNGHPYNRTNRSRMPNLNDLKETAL
UniProt P68400, sequence (whole entry, looked up): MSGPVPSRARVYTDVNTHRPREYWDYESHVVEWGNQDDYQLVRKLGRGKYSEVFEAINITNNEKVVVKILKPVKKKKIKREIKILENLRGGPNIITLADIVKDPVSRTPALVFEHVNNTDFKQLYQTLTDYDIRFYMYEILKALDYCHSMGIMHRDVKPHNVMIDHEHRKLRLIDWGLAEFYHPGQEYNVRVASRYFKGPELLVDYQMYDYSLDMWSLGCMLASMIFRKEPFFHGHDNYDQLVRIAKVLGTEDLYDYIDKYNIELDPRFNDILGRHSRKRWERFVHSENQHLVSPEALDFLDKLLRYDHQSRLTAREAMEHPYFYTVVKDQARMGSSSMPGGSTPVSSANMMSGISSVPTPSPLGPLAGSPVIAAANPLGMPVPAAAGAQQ
UniProt Q96Q40, sequence (whole entry, looked up): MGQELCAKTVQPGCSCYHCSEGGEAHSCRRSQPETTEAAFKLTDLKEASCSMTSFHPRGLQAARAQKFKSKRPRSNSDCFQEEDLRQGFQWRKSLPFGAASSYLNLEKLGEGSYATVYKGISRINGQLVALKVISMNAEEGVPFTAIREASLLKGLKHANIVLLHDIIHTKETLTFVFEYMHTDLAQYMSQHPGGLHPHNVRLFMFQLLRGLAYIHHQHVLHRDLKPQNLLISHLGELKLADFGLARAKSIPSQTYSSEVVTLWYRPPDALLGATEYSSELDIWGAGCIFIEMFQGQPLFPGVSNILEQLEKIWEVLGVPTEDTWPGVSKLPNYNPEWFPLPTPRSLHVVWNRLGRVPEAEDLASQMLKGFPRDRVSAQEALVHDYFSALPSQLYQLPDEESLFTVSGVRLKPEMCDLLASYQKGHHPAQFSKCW
UniProt P36897, sequence (whole entry, looked up): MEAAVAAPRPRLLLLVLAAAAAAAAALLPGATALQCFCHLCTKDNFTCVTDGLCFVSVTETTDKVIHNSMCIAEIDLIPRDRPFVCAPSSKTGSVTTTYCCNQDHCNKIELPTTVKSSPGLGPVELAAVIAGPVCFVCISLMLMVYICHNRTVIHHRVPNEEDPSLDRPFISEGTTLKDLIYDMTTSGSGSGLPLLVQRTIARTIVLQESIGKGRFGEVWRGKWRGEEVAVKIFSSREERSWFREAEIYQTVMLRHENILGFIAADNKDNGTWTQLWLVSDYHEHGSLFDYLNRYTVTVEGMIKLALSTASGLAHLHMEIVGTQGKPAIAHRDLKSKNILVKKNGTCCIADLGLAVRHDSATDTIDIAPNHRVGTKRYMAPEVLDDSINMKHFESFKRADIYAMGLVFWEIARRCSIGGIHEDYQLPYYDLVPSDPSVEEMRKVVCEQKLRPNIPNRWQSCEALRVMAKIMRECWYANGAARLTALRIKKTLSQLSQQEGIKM
UniProt Q99759, sequence (whole entry, looked up): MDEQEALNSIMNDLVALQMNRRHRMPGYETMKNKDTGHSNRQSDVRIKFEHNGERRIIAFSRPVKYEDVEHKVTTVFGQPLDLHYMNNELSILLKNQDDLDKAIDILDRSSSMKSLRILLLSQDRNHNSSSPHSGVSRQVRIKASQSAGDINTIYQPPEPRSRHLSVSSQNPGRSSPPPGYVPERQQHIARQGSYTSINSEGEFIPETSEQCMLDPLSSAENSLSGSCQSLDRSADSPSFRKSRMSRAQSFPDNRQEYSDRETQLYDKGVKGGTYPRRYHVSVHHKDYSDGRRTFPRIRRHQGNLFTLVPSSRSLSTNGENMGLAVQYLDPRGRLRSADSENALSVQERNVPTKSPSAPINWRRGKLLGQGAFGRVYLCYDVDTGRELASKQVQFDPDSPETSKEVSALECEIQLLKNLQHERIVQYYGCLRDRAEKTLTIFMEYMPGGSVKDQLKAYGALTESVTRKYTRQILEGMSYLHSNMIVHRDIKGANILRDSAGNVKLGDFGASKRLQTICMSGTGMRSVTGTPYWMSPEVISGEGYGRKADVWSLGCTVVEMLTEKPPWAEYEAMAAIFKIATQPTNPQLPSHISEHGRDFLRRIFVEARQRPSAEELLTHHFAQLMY

Set 1
Cell line: mouse MPNST tumor cells
Method: high-content immunofluorescence imaging
Refers to: nuclear SOX9
Concentration: 10 µM
Time: 12 h
Setting: mean of 2 replicates
Baseline: DMSO control
Reading: higher = more nuclear SOX9
| Compound | nuclear SOX9 intensity |
| --- | --- |
| Cc1cc(C)c(N(Cc2ccccc2)S(=O)(=O)c2ccc(OCCNC(=O)c3cc4ccccc4o3)cc2)c(C(=O)NO)c1 | 142 % of DMSO |
| NC12CC3CC(CC(C3)C1)C2 | 93 % of DMSO and 86 % of DMSO |
| O=C(Nc1ccc([N+](=O)[O-])cc1Cl)c1cc(Cl)ccc1O | 112 % of DMSO and 103 % of DMSO |
| CC[C@@H]1Cn2c(c3nc(-c4cc(Cl)cc(Cl)c4Cl)nc-3n(C)c2=O)N1 | 91 % of DMSO |
| CCC(F)(F)c1cc(N2CCC(S(C)(=O)=O)CC2)nc2sc(C(N)=O)c(N)c12 | 118 % of DMSO |
| C=CC(=O)N1C[C@H](Nc2ncnc3[nH]ccc23)CC[C@@H]1C | 89.9 % of DMSO |
| Cc1nc2ccccn2c(=O)c1CCN1CCC(C(=O)c2ccc(F)cc2)CC1 | 98.9 % of DMSO |
| CC(C)(C)NC[C@H](O)COc1nsnc1N1CCOCC1 | 113 % of DMSO |
| O=C(O)COC(=O)Cc1ccccc1Nc1c(Cl)cccc1Cl | 94.6 % of DMSO |
| N[C@@H](C(=O)N[C@@H]1C(=O)N2C(C(=O)O)=C(Cl)CS[C@H]12)c1ccccc1 | 98.7 % of DMSO |
| O=C(OCC(O)CO)c1ccccc1Nc1ccnc2cc(Cl)ccc12 (centres unmarked) | 117 % of DMSO |
| Cc1c(-c2ccccc2)oc2c(C(=O)OCCN3CCCCC3)cccc2c1=O | 110 % of DMSO |
| CC[C@@H]1C(=O)OC[C@@H]1Cc1cncn1C | 106 % of DMSO and 84.8 % of DMSO |

Set 2
Target: Tyrosine-protein kinase HCK (HCK, Homo sapiens, UniProt P08631)
UniProt P08631, sequence (whole entry, looked up): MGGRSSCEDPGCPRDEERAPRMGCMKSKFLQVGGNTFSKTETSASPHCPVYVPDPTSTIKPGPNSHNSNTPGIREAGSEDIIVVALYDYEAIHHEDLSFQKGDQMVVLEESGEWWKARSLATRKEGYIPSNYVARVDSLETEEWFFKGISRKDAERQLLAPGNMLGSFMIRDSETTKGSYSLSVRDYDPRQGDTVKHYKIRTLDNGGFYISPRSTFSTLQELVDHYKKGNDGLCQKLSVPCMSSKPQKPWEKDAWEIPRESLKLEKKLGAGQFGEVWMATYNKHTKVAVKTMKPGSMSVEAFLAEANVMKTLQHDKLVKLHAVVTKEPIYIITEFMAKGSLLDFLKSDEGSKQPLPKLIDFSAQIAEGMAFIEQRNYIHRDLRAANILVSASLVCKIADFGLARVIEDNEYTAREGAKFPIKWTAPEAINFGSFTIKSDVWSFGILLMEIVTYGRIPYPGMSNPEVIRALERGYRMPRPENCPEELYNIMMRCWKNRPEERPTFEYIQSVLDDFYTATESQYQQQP
Effect on: enzyme activity
Mode: inhibitor
Concentration: 0.5 µM
Baseline: control
| SMILES | remaining activity |
| --- | --- |
| c1ccc(-c2[nH]ncc2-c2ccnc3ccccc23)nc1 | 98.5% |
| Cc1cc2ncc(-c3ccccc3)nc2cc1C | 90.1% |
| Cc1nc2cc3nc(-c4cccs4)cnc3cc2n1C | 98% |
| CCN(CC)CCNC(=O)c1c(C)[nH]c(/C=C2\C(=O)Nc3ccc(Cl)cc32)c1C | 34.3% |
| Ic1cccc(CSc2nnc(-c3ccncc3)o2)c1 | 104% |
| N#Cc1c(NC(=O)c2cccc3ccccc23)sc2c1CCCC2 | 96.5% |
| N#C/C(=C\c1ccc(O)c(O)c1)C(=O)NCc1ccccc1 | 97.5% |
| c1ccc(-c2cnc(Nc3ccc(OCCN4CCCC4)cc3)s2)cc1 | 98.6% |
| O=C(NC(NC(=S)Nc1ccc(F)c([N+](=O)[O-])c1)C(Cl)(Cl)Cl)C(c1ccccc1)c1ccccc1 (centres unmarked) | 107% |
| CN([C@@H](Cc1ccc(OS(=O)(=O)c2cccc3cnccc23)cc1)C(=O)N1CCN(c2ccccc2)CC1)S(=O)(=O)c1cccc2cnccc12 | 97.4% |
| O=C1c2ccccc2-c2n[nH]c3cccc1c23 | 87.3% |
| Cc1cn(-c2cc(NC(=O)c3ccc(C)c(Nc4nccc(-c5cccnc5)n4)c3)cc(C(F)(F)F)c2)cn1 | 46.6% |
| COc1cc2c(cc1OC)-c1[nH]nc(Nc3cccc(F)c3)c1C2 | 61.9% |
| CCN(CC)CCNC(=O)c1c(C)[nH]c(/C=C2\C(=O)Nc3ccc(F)cc32)c1C | 40% |
| CCN(CC)C(=O)c1ccc(Nc2nc(OCC3CCCCC3)c3[nH]cnc3n2)cc1 | 63.1% |
| O=C1C(Cl)=C(N2C(=O)CCC2=O)C(=O)c2ccccc21 | 94.2% |
| COc1cc2ncnc(Nc3cccc(Cl)c3)c2cc1OC | 61.8% |
| O=C(Nc1cccc(Nc2nccc(Nc3cccc(C(F)(F)F)c3)n2)c1)C1CC1 | 102% |
| Nc1cccc(-c2cc3c(Oc4cccc(O)c4)ncnc3[nH]2)c1 | 6.65% |
| CCOc1nc(NC(=O)Cc2cc(OC)ccc2OC)cc(N)c1C#N | 98.5% |
| Cn1nc2c3c(cccc31)C(=O)c1ccccc1-2 | 94.6% |
| O=c1cc(-c2cccc3c2Sc2ccccc2S3)oc(N2CCOCC2)c1 | 102% |
| CN(C)C[C@H]1CCn2c(c(C3=C(c4cn(C)c5ccccc45)C(=O)NC3=O)c3ccccc32)C1 | 95.3% |
| C[C@@H]1CCN(C(=O)CC#N)C[C@@H]1N(C)c1ncnc2[nH]ccc12 | 88.3% |

Set 3
Compound: CCC(=O)N[C@@H]1CC[C@H](C(=O)N(C)c2ccc(-c3nc4ccccc4o3)cc2)C1
Effect on: cell-free assay
Method: competition with immobilised ligand
Concentration: 1 µM
| target | remaining binding [%] |
| --- | --- |
| CDK15 (Homo sapiens, UniProt Q96Q40) | 100 |
| PIK3CA (Homo sapiens, UniProt P42336, E545K) | 75 |
| TGFBR1 (Homo sapiens, UniProt P36897) | 95 |
| SRPK2 (Homo sapiens, UniProt P78362) | 100 |
| VRK2 (Homo sapiens, UniProt Q86Y07) | 100 |
| GSK3A (Homo sapiens, UniProt P49840) | 84 |
| Tyrosine-protein kinase ABL1, phosphorylated (ABL1, Homo sapiens, UniProt P00519, Y253F) | 95 |
| CLK4 (Homo sapiens, UniProt Q9HAZ1) | 88 |
| MET (Homo sapiens, UniProt P08581, Y1235D) | 100 |
| CSNK2A1 (Homo sapiens, UniProt P68400) | 98 |
| RIOK1 (Homo sapiens, UniProt Q9BRS2) | 100 |
| CASK (Homo sapiens, UniProt O14936) | 83 |
| EGFR (Homo sapiens, UniProt P00533, L858R/T790M) | 100 |
| NEK2 (Homo sapiens, UniProt P51955) | 100 |
| HIPK3 (Homo sapiens, UniProt Q9H422) | 76 |
| CDC42BPA (Homo sapiens, UniProt Q5VT25) | 100 |
| CDKL5 (Homo sapiens, UniProt O76039) | 100 |
| NEK5 (Homo sapiens, UniProt Q6P3R8) | 100 |
| MAP3K3 (Homo sapiens, UniProt Q99759) | 96 |
| IRAK3 (Homo sapiens, UniProt Q9Y616) | 100 |
| Macrophage colony-stimulating factor 1 receptor, autoinhibited (CSF1R, Homo sapiens, UniProt P07333) | 100 |
| SRPK1 (Homo sapiens, UniProt Q96SB4) | 100 |
| MET (Homo sapiens, UniProt P08581, M1250T) | 100 |

Other studies, line by line
Cell line: A-375
Concentration: 100 µM
Time: 60 h
| SMILES | viability [%] |
| --- | --- |
| CC(=O)Nc1ccccc1 | 107 |
| CNC(=O)c1c(C)oc2cc(Oc3ncnc4cc(OC)c(OC)cc34)ccc12 | 95.1 |

Excerpt of the above (other studies, line by line):
| SMILES | viability [%] |
| --- | --- |
| CC(=O)Nc1ccccc1 | 107 |
| CNC(=O)c1c(C)oc2cc(Oc3ncnc4cc(OC)c(OC)cc34)ccc12 | 95.1 |
